Measured values pooled from the literature.
Lines come from different studies, so protocols differ. Numbers after ± are the reported error.

For `CN1CC[C@@H](c2c(O)cc(O)c3c(=O)cc(-c4ccc(C(F)(F)F)cc4Cl)oc23)[C@@H]1CO`, “patients with adverse event” read 12.5% (refers to: Hypertension; B-cell malignancies or AML; oral, 50 mg, continuous dosing).
For `CCC(=O)N1CCN(C(=O)c2ccccc2)CC1`, the IC50 was 3.16 µM (Plasmodium falciparum; D10).
Under “patients with headache TEAE”, `C=CCNc1c(O)cc2c(O)c1C[C@@H](C)C[C@H](OC)[C@H](O)[C@@H](C)/C=C(\C)[C@H](OC(N)=O)[C@@H](OC)/C=C\C=C(/C)C(=O)N2` is recorded as 63% (unresectable or metastatic STS, GIST, other; intravenous, 400 mg/m^2).
Under “incidence of decreased neutrophil”, `C[C@@H](NC(=O)N1C(=O)[C@H](Cc2ccnc(N)c2)[C@H]1C(=O)O)C1CCCCC1` is recorded as 0% (healthy adult Chinese volunteers; continuous intravenous infusion, 0.3 mg/kg/h, 5-day infusion, CTCAE 5.0 grading).
For `C[C@H]1COCCN1c1nc(NCc2cccnc2C(F)(F)F)c2cccnc2n1`, the BP change was 6.7% (anaesthetized rat; intravenous, 10 mg/kg; relative to: control).
`CCS(=O)(=O)Nc1ccc(Oc2ccc(F)cc2F)c(-c2cn(C)c(=O)c3[nH]ccc23)c1`: “treatment-emergent adverse events” 11% (serious respiratory distress; human, relapsed/refractory AML; oral, dose not given).
For `CC1(C)C(C=C(Cl)Cl)C1C(=O)OC(C#N)c1ccc(F)c(Oc2ccccc2)c1` (stereo not drawn), “enzyme contribution to clearance” read 0.6% (refers to: CYP2C19; human, age 5 years, recombinant human CYP2C19; 0.1 µM).
Under “literature range factor”, `Clc1ccc(-c2cc(Cl)c(Cl)c(Cl)c2)cc1` is recorded as 1 (polyethylene-water partitioning; PCB compilation; relative to: maximum over minimum K).
The leukocyte differential of `O=C(O)CCCOc1ccc(F)cc1-c1cc(-c2ccccc2C(F)(F)F)n(-c2ccccc2)n1` is reported as 81.2 ± 4.2% (refers to: Lymphocytes; Crl:CD(SD) rats, female, blood; iv, 25 µg/kg, 1 day).
`C[C@]1(CO)Cc2ncn(-c3ccc(C#N)c(Cl)c3)c2C(=O)O1` — result for “subjects with drug-related urine abnormality”: 0% (human; 80 mg multiple doses, fasted).
With `O[C@H]1CCCN[C@@H]1CCCn1cnc2c(Cl)c(Cl)ccc21` the median Cmax,ss was 224 ng/mL (healthy CYP2D6 extensive/ultrarapid metabolizers, plasma; oral, 150 mg multiple doses).
For `C=CC(=O)N1CC[C@H](n2nc(C#Cc3cc(OC)cc(OC)c3)c3c(N)ncnc32)C1`, “adverse drug reaction incidence” read 0% (patients with advanced solid tumours; oral, dose not given, Stomatitis, any grade, QD, together with: ferric citrate hydrate).
`COc1c(OCCCN2CCOCC2)ccc2c1N=C(NC(=O)c1cnc(N)nc1)N1CCN=C21`: “patients with adverse event” 50% (refers to: Vomiting; patients with advanced malignancies; intravenous, dose not given, any grade, all cohorts, together with: gemcitabine).
For `CCN(CCO)CCCC(C)Nc1ccnc2cc(Cl)ccc12` (stereo not drawn), “white cell decrease patients” read 33% (newly diagnosed glioblastoma patients; oral, 200 mg/dose, grade 2, together with: radiotherapy and temozolomide).
Under “treatment-related adverse events”, `CCCCCCCCCCCCCCCC(=O)N[C@@H](CCC(=O)NCCCC[C@H](NC(=O)[C@H](CC(=O)O)NC(=O)[C@H](CO)NC(=O)[C@@H](NC(=O)[C@H](Cc1ccccc1)NC(=O)[C@@H](NC(=O)CNC(=O)[C@H](CCC(N)=O)NC(=O)[C@H](CO)NC(=O)[C@@H](N)Cc1c[nH]cn1)[C@@H](C)O)[C@@H](C)O)C(=O)N[C@@H](CO)C(=O)N[C@@H](CCC(=O)O)C(=O)N[C@@H](Cc1ccc(O)cc1)C(=O)N[C@@H](CC(C)C)C(=O)N[C@@H](CC(=O)O)C(=O)N[C@@H](CO)C(=O)N[C@@H](CCC(=O)O)C(=O)N[C@@H](CCCNC(=N)N)C(=O)N[C@@H](C)C(=O)N[C@@H](CCCNC(=N)N)C(=O)N[C@@H](CC(=O)O)C(=O)N[C@@H](Cc1ccccc1)C(=O)N[C@H](C(=O)N[C@@H](C)C(=O)N[C@@H](Cc1c[nH]c2ccccc12)C(=O)N[C@@H](CC(C)C)C(=O)N[C@@H](CCC(=O)O)C(=O)N[C@@H](C)C(=O)NCC(=O)NCC(=O)O)C(C)C)C(=O)O` is recorded as 0% (refers to: Diarrhoea; humans CrCl 20 to 30 mL/min; subcutaneous, 100 µg single dose).
For `CC/C(=C(\c1ccccc1)c1ccc(OCCN(C)C)cc1)c1ccccc1`, “elimination rate constant” read 4.15e-05 s⁻¹ (CD-1 mouse, male, lung; intraperitoneal, 0.3 mg/kg).
For `CC(CN1c2ccccc2Sc2ccccc21)N(C)C` (stereo not drawn), the IC50 was 12.6 µM (Plasmodium falciparum; D10).
`CO[C@H]1C[C@@H]2CC[C@@H](C)[C@@](O)(O2)C(=O)C(=O)N2CCCC[C@H]2C(=O)O[C@H]([C@H](C)C[C@@H]2CC[C@@H](OC(=O)NCCOCCOCCOCCOCCOCCOCCOCCOCCC(=O)N3CCc4cc(Cn5nc(-c6ccc7oc(N)nc7c6)c6c(N)ncnc65)ccc4C3)[C@H](OC)C2)C[C@@H](O)[C@H](C)/C=C(\C)[C@@H](O)[C@@H](OC)C(=O)[C@H](C)C[C@H](C)/C=C/C=C/C=C/1C` gave a nausea incidence of 56.3% (patients with advanced solid tumours; intravenous, 8 mg weekly, any grade).
`CC(C)C[C@@H]1NC(=O)CNC(=O)[C@H](CC(N)=O)NC(=O)[C@H](CCCNC(=N)N)NC(=O)[C@H]([C@@H](C)O)NC(=O)[C@@H]2CSSC[C@@H]3NC(=O)[C@H]([C@@H](C)O)NC(=O)CNC(=O)CNC(=O)[C@H](C(C)C)NC(=O)[C@@H]4CSSC[C@H](NC(=O)[C@H]([C@@H](C)O)NC(=O)[C@H](CSSC[C@H](NC(=O)[C@H](C(C)C)NC(=O)[C@@H]5CCCN5C1=O)C(=O)NCC(=O)N[C@@H](CCC(=O)O)C(=O)N[C@@H]([C@@H](C)O)C(=O)N4)NC(=O)CNC(=O)[C@H](CCCCN)NC(=O)[C@H]([C@@H](C)O)NC(=O)[C@H](CC(N)=O)NC3=O)C(=O)N[C@@H](CO)C(=O)N[C@@H](Cc1c[nH]c3ccccc13)C(=O)N1CCC[C@H]1C(=O)N[C@@H](C(C)C)C(=O)N2` has a remaining peptide of 93.9 ± 0.6% (HPLC; ammonium bicarbonate; 180 µM, 7 days, pH 9.0, 25 °C, deamidation stability).
`c1ccc2c(c1)cc1ccc3cccc4ccc2c1c34` gave a log K(PDMS-water) of 5.17 ± 0.02 (fresh water; 12 (unit not given), 20 °C, SSP sampler, 100 µm).
For `O=C(Nc1ccccc1)C1CCN(C(=O)Oc2cccnc2)CC1`, “subjects with Rhinitis adverse event” read 7.7% (adverse event reporting; healthy women; oral, 100 mg, 9 days).
`Clc1cc(Cl)c(-c2c(Cl)cc(Cl)cc2Cl)c(Cl)c1`: “literature range factor” 2 (polyethylene-water partitioning; PCB compilation; relative to: maximum over minimum K).
`CC(=O)c1c(C)c2cnc(Nc3ccc(C4CCN(CCS(C)(=O)=O)CC4)cn3)nc2n(C2CCCC2)c1=O` — result for “elimination rate constant”: 2.22e-05 s⁻¹ (human, plasma; oral, 75 mg, day 1 single dose).
`CC(C)n1c(C2CCNCC2)nc2c([N+](=O)[O-])c(Br)c(Br)cc21`: “adverse events any grade” 46% (refers to: Asthenia; AML patients; 125 mg).
`CN1CCN(c2ccc(Nc3nccc(-c4ccc(C#N)cc4)n3)cc2C(F)(F)F)CC1` gave a toxicity of 0% (Danio rerio embryos; 5 µM, 5 d).
`CC(C)c1nc(N(C)S(C)(=O)=O)nc(-c2ccc(F)cc2)c1/C=C/[C@@H](O)C[C@@H](O)CC(=O)O` — result for “incidence of abdominal discomfort”: 0% (healthy human subjects; oral, dose not given, study CL-0537 safety set).
`COc1ccc(-c2c(-c3ccc(C#N)c(F)c3)nc(N3CCC(N)CC3)n(C)c2=O)cc1F`: “treatment-related adverse event incidence” 13% (refers to: Leukopenia; neuroendocrine neoplasm patients; oral, 60 mg, any grade, dose expansion).
For `CC1(C)[C@@H](O[C@H]2O[C@H](C(=O)O)[C@@H](O)[C@H](O)[C@H]2O[C@@H]2O[C@H](C(=O)O)[C@@H](O)[C@H](O)[C@H]2O)CC[C@]2(C)[C@H]3C(=O)C=C4[C@@H]5C[C@@](C)(C(=O)O)CC[C@]5(C)CC[C@@]4(C)[C@]3(C)CC[C@@H]12`, the Vz/F was 0.43 ± 0.2 L/kg (Sprague Dawley rat, plasma; oral, 3.34 g lyophilized powder/kg, low dose).
`COc1cc2c(Oc3ccc4[nH]c(C)cc4c3F)ccnc2cc1OCC1(N)CC1`: “grade 1 or 2 Hypertension” 0% (paediatric recurrent refractory sarcoma; 8 mg/kg).
`Cc1cccc(Cn2nc(C3CC3)c3c(NC(=O)c4cnc5cc(OCCN6CCN(C)CC6)ccn45)cccc32)n1` — result for “adverse events incidence”: 57.1% (refers to: Anemia; human advanced solid tumours; oral, 400 mg, all-causality).

Some of these lines once more:
For `CC/C(=C(\c1ccccc1)c1ccc(OCCN(C)C)cc1)c1ccccc1`, “elimination rate constant” read 4.15e-05 s⁻¹ (CD-1 mouse, male, lung; intraperitoneal, 0.3 mg/kg).
`CC(C)C[C@@H]1NC(=O)CNC(=O)[C@H](CC(N)=O)NC(=O)[C@H](CCCNC(=N)N)NC(=O)[C@H]([C@@H](C)O)NC(=O)[C@@H]2CSSC[C@@H]3NC(=O)[C@H]([C@@H](C)O)NC(=O)CNC(=O)CNC(=O)[C@H](C(C)C)NC(=O)[C@@H]4CSSC[C@H](NC(=O)[C@H]([C@@H](C)O)NC(=O)[C@H](CSSC[C@H](NC(=O)[C@H](C(C)C)NC(=O)[C@@H]5CCCN5C1=O)C(=O)NCC(=O)N[C@@H](CCC(=O)O)C(=O)N[C@@H]([C@@H](C)O)C(=O)N4)NC(=O)CNC(=O)[C@H](CCCCN)NC(=O)[C@H]([C@@H](C)O)NC(=O)[C@H](CC(N)=O)NC3=O)C(=O)N[C@@H](CO)C(=O)N[C@@H](Cc1c[nH]c3ccccc13)C(=O)N1CCC[C@H]1C(=O)N[C@@H](C(C)C)C(=O)N2` has a remaining peptide of 93.9 ± 0.6% (HPLC; ammonium bicarbonate; 180 µM, 7 days, pH 9.0, 25 °C, deamidation stability).
`CC(C)n1c(C2CCNCC2)nc2c([N+](=O)[O-])c(Br)c(Br)cc21`: “adverse events any grade” 46% (refers to: Asthenia; AML patients; 125 mg).
